Results collected from several papers.
Parts stem from different laboratories: compare values within a part only. Values joined by “and” are separate records of one study, mostly repeats; a detail may differ.

Series 1 — technique: protein binding microarray; molecule type: double-stranded DNA, one strand shown; matrix: in vitro; concentration: not given; baseline: not given; reading: higher = stronger binding; measurement: E-score
Target: Histone acetyltransferase KAT6A, winged helix 2, GST fusion (KAT6A, Homo sapiens, UniProt Q92794, residues 85-181)
Notes: 8-mer, flanks averaged, mean of 2 arrays, mostly near background
Construct (chain): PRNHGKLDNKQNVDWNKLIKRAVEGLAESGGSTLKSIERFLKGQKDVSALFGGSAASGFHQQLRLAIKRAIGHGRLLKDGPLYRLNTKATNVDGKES
ACTGGCAG: 0.0108
CTGAGGAC: -0.0415
AGAGTGCC: -0.114
CAGGGGGA: -0.0307
CCTAGGAC: -0.13
GTTCCCCA: 0.0172
ACCGCAAA: 0.19
AGGGGTAA: -0.194

Series 2 — technique: competition protein-binding microarray; molecule type: double-stranded DNA, one strand shown; matrix: in vitro; concentration: 2 µM; together with: Pho4 competitor, 0.05 µM; reading: higher = stronger binding; measurement: fluorescence intensity; constant ends, left off below: … GTCTTGATTCGCTTGACGCTGCTG
Target: Centromere-binding protein 1, full length, His-tagged (CBF1, Saccharomyces cerevisiae, UniProt P17106, residues 1-351)
Chain of UniProt P17106 (whole entry, looked up): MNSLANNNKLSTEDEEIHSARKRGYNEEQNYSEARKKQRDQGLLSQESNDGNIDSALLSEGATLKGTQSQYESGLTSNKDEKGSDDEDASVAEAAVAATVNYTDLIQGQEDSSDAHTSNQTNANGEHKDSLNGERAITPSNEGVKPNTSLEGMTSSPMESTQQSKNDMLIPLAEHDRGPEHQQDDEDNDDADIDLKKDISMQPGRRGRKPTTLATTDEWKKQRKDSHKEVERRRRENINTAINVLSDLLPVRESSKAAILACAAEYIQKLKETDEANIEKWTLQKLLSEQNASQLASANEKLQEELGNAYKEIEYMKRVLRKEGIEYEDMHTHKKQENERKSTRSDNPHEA
Notes: whole 60-bp probe, lowest competitor level
AAAGCGGTAATTTGGCATGTGGGTGCAGATATCTAT: 110 a.u.
GGTTGTTTAACAATAAACGTGTAGAGTACAGGTAGA: 97.7 a.u.
CTTCTGTAAATTTTTCACGTGTGTTGACGCGCCCCG: 580 a.u.
TAATAGAGATATCACCACGTGTGGAGAATAGATTCA: 964 a.u.
CATACCCAACCTTGAAATGTGGGTGAAGATATTTGT: 69.2 a.u.
CATACCCAACCTTGTAAAGTGGGTGAAGATATTTGT: 84.2 a.u.
CTTGCATTGACCGCGAACGTGTAACCACAAGCAAAG: 75.9 a.u.
CTGTTGGGTTTTTCTCTCGAGCAAGCCGTTATAATT: 66.5 a.u.

Mixed results
MARK1: Serine/threonine-protein kinase MARK1 (MARK1, Homo sapiens, UniProt Q9P0L2)
Chain of UniProt Q9P0L2 (whole entry, looked up): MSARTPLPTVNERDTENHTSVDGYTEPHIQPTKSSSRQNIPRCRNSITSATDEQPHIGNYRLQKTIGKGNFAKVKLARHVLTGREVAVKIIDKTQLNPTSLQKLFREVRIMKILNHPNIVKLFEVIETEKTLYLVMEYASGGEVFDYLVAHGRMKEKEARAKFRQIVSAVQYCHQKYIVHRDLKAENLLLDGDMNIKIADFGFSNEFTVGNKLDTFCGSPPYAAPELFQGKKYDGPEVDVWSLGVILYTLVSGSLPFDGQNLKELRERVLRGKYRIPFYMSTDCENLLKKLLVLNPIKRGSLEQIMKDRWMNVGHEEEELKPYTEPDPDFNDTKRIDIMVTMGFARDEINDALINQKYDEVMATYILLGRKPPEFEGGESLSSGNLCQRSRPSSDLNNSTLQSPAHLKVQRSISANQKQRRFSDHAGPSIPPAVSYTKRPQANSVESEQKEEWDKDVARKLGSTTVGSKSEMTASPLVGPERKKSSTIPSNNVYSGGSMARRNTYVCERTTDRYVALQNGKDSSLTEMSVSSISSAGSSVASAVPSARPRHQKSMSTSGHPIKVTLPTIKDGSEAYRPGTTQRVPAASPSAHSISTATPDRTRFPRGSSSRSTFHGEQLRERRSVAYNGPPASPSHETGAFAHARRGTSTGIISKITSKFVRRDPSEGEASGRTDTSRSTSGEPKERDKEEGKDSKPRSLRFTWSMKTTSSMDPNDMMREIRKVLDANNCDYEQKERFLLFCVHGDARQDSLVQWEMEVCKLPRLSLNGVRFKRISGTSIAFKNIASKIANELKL
Nc1nc(Nc2ccc(S(N)(=O)=O)cc2)nn1C(=S)Nc1c(F)cccc1F — remaining activity (MARK1; enzyme activity, inhibitor; 0.5 µM; baseline: control): 2.68%
CC(C)n1cnc(-c2ccc(F)cc2)c1-c1ncc(C(=O)Nc2ccc(N3CCN(C)CC3)cc2)[nH]1 — blood fibrinogen increased (IPF patients; 60 mg once daily, adverse event incidence): 0%
O=C(O)/C=C/c1cc(Br)c(Br)c(Br)c1Br — remaining activity (MARK1; enzyme activity, inhibitor; 0.5 µM; baseline: control): 93.7%
COc1ccc2c(c1)O[C@H](c1ccc(OC)c(OC)c1)C[C@@H]2NC(=O)C1(c2ccc3c(c2)OC(F)(F)O3)CC1 (single isomer, unassigned) — viability (sample B colorectal tumour organoid; 1 µM; baseline: DMSO): 124% and 114%

Repeated from above (series 2):
CTGTTGGGTTTTTCTCTCGAGCAAGCCGTTATAATT: 66.5 a.u.
CATACCCAACCTTGAAATGTGGGTGAAGATATTTGT: 69.2 a.u.
CTTCTGTAAATTTTTCACGTGTGTTGACGCGCCCCG: 580 a.u.
